Experimental data pooled from the literature.
Lines come from different studies, so protocols differ. Numbers after ± are the reported error.

SMILES	assay	system	setting	scale	quantity	value
COc1cc(O)c(CC=C(C)C)c(O)c1C(=O)/C=C/c1ccc(O)cc1	–	male Tac:SW germ-free mice, high-fat diet	in diet, 60 mg/kg/day, 10 weeks	–	fasting plasma glucose	134 mg/dL
Cc1cc(C)c(CNC(=O)c2cc(Cl)c3c(c2C)O[C@@](C)([C@H]2CC[C@H](N(C)C)CC2)O3)c(=O)[nH]1	IWG criteria	relapsed/refractory AITL patients	dose not given	–	best response not evaluable	5%
C[C@@H](NC(=O)N1C(=O)[C@H](Cc2ccnc(N)c2)[C@H]1C(=O)O)C1CCCCC1	–	human	iv infusion, 2.25 mg/kg/h, 24 h	reference: baseline	time to ACT Emax	24 h
N#Cc1ccc2c(-c3ccncc3)c(-c3ccc(F)cc3)nn2c1	kinase binding, competitor, MIB/MS competition, measured: KIN2	Candida albicans cell lysate	100 nM	reference: DMSO	log2 fold change	-0.347
NC(=O)c1cnc2[nH]ccc2c1N[C@@H]1[C@@H]2CC3C[C@H]1C[C@@](O)(C3)C2	flow cytometry, measured: CD8+ naive T cells	Japanese healthy subjects, peripheral blood	oral, 100 mg twice daily, day 4	–	change from baseline	-2.6%
CN[C@@H](C)C(=O)N[C@H]1CN(S(=O)(=O)c2cccc(S(=O)(=O)N3CC[C@H]4CC[C@@H](C(=O)NC(c5ccccc5)c5ccccc5)N4C(=O)[C@@H](NC(=O)[C@H](C)NC)C3)c2)CC[C@H]2CC[C@@H](C(=O)NC(c3ccccc3)c3ccccc3)N2C1=O	RECIST 1.1	advanced pancreatic cancer patients	dose not given, prior therapy, with: AG	–	best response stable disease	33.3%
C[C@@H](O)CCOC(=O)C[C@@H](C)O	measured: His	human, plasma	60 min, log2-transformed values	–	metabolite level	6.3 ± 0.16 µmol/L
Cc1cc(C)c(CNC(=O)c2cc(Cl)c3c(c2C)O[C@@](C)([C@H]2CC[C@H](N(C)C)CC2)O3)c(=O)[nH]1	–	relapsed/refractory NHL patients, PTCL	oral, dose not given	–	best overall response CR	38.5%
COC[C@@H](c1ccc(C(F)(F)F)cc1)N1CCN(C2(C)CCN(C(=O)c3c(C)ncnc3C)CC2)C[C@@H]1C	–	HIV-1 infected patients, plasma	15 mg, week 24, with optimized background regimen	reference: baseline	change in HIV-1 RNA	-1.85 log10 copies/mL
COc1ccc(F)cc1C(=O)NCc1ccc(-c2nn([C@@H](C)C(F)(F)F)c(N)c2C(N)=O)cc1	–	relapsed/refractory CLL patients	dose not given, patients with longitudinal samples	–	best overall response NE	0%
Cc1ccc([C@@H]2O[C@H](CO)[C@@H](O)[C@H](O)[C@H]2O)cc1Cc1ccc(-c2ccc(F)cc2)s1	–	Japanese type 2 diabetes patients	200 mg, day 16	reference: day 0	change, mean 24 h, plasma glucose	-57 mg/dL
CNC(=O)c1ccc(N2C(=S)N(c3ccc(C#N)c(C(F)(F)F)c3)C(=O)C2(C)C)cc1F	western blot	NRG mouse male, CWR22Rv1 xenograft, tumour	dose not given, 16 days	–	AR-V7 protein level	no effect
CC(C)NCC(O)c1ccc(O)c(O)c1 (stereo not drawn)	–	ventricular cardiomyocytes, C57BL/6 mouse	dose not given, 0.376 s	–	sarcomere length	1.72 µm
C[C@H](Oc1ccc(Br)cc1-c1ccon1)C(=O)O	first response latency	human, tibialis anterior muscle	1200 mg, 15 Hz, single ascending dose	–	difference from placebo	0.306%
N#Cc1ccc2c(c1)[C@H]1CCCN(C(=O)c3ccc4[nH]cnc4c3)[C@H]1C2	–	human, urine	40 mg, 24 h, day 1 over day -1	reference: placebo and baseline	total urinary corticosteroids	92.6 % change
OC(CCN1CCCCC1)(c1ccccc1)C1CC2C=CC1C2 (stereo not drawn)	resting-state EEG	healthy elderly humans	oral, 4 mg, eyes closed, LS mean	reference: baseline	change in EEG Beta1-power Pz-O2	-15.8%
O=C(O)CNC(=O)Cc1ccccc1	–	ventricular cardiomyocytes, C57BL/6 mouse	dose not given, 0.804 s	–	sarcomere length	1.68 µm
c1ccc(-c2n[nH]cc2-c2ccnc3ccccc23)nc1	kinase binding, competitor, MIB/MS competition, measured: RIM8	Candida albicans cell lysate	100 nM	reference: DMSO	log2 fold change	1.58

Excerpt of the above:
SMILES	assay	system	setting	scale	quantity	value
CN[C@@H](C)C(=O)N[C@H]1CN(S(=O)(=O)c2cccc(S(=O)(=O)N3CC[C@H]4CC[C@@H](C(=O)NC(c5ccccc5)c5ccccc5)N4C(=O)[C@@H](NC(=O)[C@H](C)NC)C3)c2)CC[C@H]2CC[C@@H](C(=O)NC(c3ccccc3)c3ccccc3)N2C1=O	RECIST 1.1	advanced pancreatic cancer patients	dose not given, prior therapy, with: AG	–	best response stable disease	33.3%
O=C(O)CNC(=O)Cc1ccccc1	–	ventricular cardiomyocytes, C57BL/6 mouse	dose not given, 0.804 s	–	sarcomere length	1.68 µm
